Measured values pooled from the literature.
Numbers after ± are the reported error.

C=C[C@]1(C)CC[C@H]2C(=C[C@H]3OC(=O)[C@@]4(C)C(=O)CC[C@@]2(C)[C@@H]34)C1  IC50 (Saccharomyces cerevisiae alpha-glucosidase; enzyme activity, inhibitor; with: pNPG substrate): 991.95 ± 0.96 µg/mL
Oc1ccc(CCC(O)CC(O)CCc2ccc(O)cc2)cc1 (centres unmarked)  IC50 (Maob (Rattus norvegicus, UniProt P19643); enzyme activity, inhibitor): 196 µM
O=c1[nH]c2ccccc2nc1/C=C/c1ccccc1Br  IC50 (FLT3 (Homo sapiens, UniProt P36888); enzyme activity, inhibitor, TR-FRET): > 100 µM
O=C(Nc1ccc(C(=O)Nc2ccc(C(=O)Nc3ccc(S(=O)(=O)O)c4cc(S(=O)(=O)O)cc(S(=O)(=O)O)c34)cc2)cc1)Nc1ccc(C(=O)Nc2ccc(C(=O)Nc3ccc(S(=O)(=O)O)c4cc(S(=O)(=O)O)cc(S(=O)(=O)O)c34)cc2)cc1  IC50 (Neutrophil elastase (ELANE, Homo sapiens, UniProt P08246); enzyme activity, inhibitor, absorbance; pH 7.4): 0.22 µM
CC(C)NC(=O)[C@H](CCc1ccccc1)NC(=O)[C@H](CC(=O)NCC(C)(C)C)NC(=O)CCc1ccccc1  IC50 (Proteasome subunit beta type-3/PSMB7 (Homo sapiens, UniProt P49720+Q99436); inhibitor): > 100 µM
CC(=O)N[C@@H](Cc1c[nH]c2ccccc12)C(=O)N[C@H]1CSSC[C@@H](C(=O)N[C@@H](Cc2c[nH]c3ccccc23)C(N)=O)NC(=O)[C@H](CCCNC(=N)N)NC(=O)[C@H](Cc2c[nH]cn2)NC(=O)[C@H](C)NC(=O)CNC(=O)[C@H](Cc2c[nH]c3ccccc23)NC(=O)[C@H](CC(=O)O)NC(=O)[C@H](CCC(N)=O)NC(=O)[C@H](Cc2c[nH]c3ccccc23)NC(=O)[C@H](C(C)C)NC1=O  IC50 (Complement C3 (Homo sapiens, UniProt P01024); C3b formation, ELISA; normal human serum; with: LPS-coated plate): 1.09 µM
COc1ccc2c(c1)CC[C@H]1[C@@H]3[C@H](OCCCO)CC(=O)[C@@]3(C)CC[C@H]21  IC50 (HSD17B1 (Homo sapiens, UniProt P14061); enzyme activity, inhibitor, radiometric): 2.7 µM
COc1ncccc1C(=O)Nc1ccccc1Nc1ccccc1  IC50 (Succinate dehydrogenase complex (Sus scrofa, UniProt A5GZW8+D0VWV4+Q007T0+Q0QF01); enzyme activity, inhibitor, double-antibody sandwich ELISA): 4.95 µM
Nc1cc(COc2ccc3[nH]cc(CC(N)C(=O)O)c3c2)c2oc(-c3ccccc3)nc2c1 (centres unmarked)  IC50 (SLC7A5 (Homo sapiens, UniProt Q01650); transporter uptake, inhibitor, radiometric): 18 µM
C=C(NC(=O)C(=C)NC(=O)c1csc(C2=NC3c4csc(n4)C4NC(=O)c5csc(n5)C(C(C)(O)C(C)O)NC(=O)C5CSC(=N5)C(=CC)NC(=O)C(C(C)O)NC(=O)c5csc(n5)C3(CC2)NC(=O)C(C(C)CC)NC(=O)C(=C)NC(=O)C(C)NC(=O)C(C(C)CC)NC2C=Cc3c(C(C)O)cc(nc3C2O)C(=O)OC4C)n1)C(N)=O (centres unmarked)  IC50 (PSMB5 (Homo sapiens, UniProt P28074); chymotrypsin-like activity, inhibitor; purified 20S proteasome; 15 min preincubation, 37 °C, with: Suc-Leu-Leu-Val-Tyr-AMC substrate): 0.27 ± 0.03 µM
COc1cc(-c2nc3ccc(C(=O)NCCCN4CCN(C(=O)c5ccccc5)CC4)cc3n2C2CCC2)cc(OC)c1OC  IC50 (ACVRL1 (Homo sapiens, UniProt P37023); target engagement in cells, BRET): > 30 µM
O=C(Oc1ccccc1)n1c(=O)oc2ccc(Cl)cc21  IC50 (OGT (Homo sapiens, UniProt O15294); enzyme activity, inhibitor; with: UDP-GlcNAz, Nup62 substrate): 6 µM
CCOc1c(C(C)(C)O)sc2cnc(Nc3ccc(N4CCC(N5CC6(COC6)C5)CC4)cc3OC)nc12  IC50 (CAMK2D (Homo sapiens, UniProt Q13557); enzyme activity, inhibitor, mobility shift): 0.022 µM
O=C(COc1ccc(F)cc1)N[C@@H](Cc1cn(CCNC(=O)c2ccc(S[C@@H]3O[C@H](CO)[C@H](O)[C@H](O)[C@H]3O)cc2)nn1)C(=O)NCCO  IC50 (lecA (Pseudomonas aeruginosa, UniProt Q05097); ligand displacement, FP): 58.3 µM

Some of these lines once more:
CC(C)NC(=O)[C@H](CCc1ccccc1)NC(=O)[C@H](CC(=O)NCC(C)(C)C)NC(=O)CCc1ccccc1  IC50 (Proteasome subunit beta type-3/PSMB7 (Homo sapiens, UniProt P49720+Q99436); inhibitor): > 100 µM
